Assay results from different studies.
Compare with care: the assays were run in different laboratories. ± gives the spread as reported.
Chain of UniProt P41595 (whole entry, looked up): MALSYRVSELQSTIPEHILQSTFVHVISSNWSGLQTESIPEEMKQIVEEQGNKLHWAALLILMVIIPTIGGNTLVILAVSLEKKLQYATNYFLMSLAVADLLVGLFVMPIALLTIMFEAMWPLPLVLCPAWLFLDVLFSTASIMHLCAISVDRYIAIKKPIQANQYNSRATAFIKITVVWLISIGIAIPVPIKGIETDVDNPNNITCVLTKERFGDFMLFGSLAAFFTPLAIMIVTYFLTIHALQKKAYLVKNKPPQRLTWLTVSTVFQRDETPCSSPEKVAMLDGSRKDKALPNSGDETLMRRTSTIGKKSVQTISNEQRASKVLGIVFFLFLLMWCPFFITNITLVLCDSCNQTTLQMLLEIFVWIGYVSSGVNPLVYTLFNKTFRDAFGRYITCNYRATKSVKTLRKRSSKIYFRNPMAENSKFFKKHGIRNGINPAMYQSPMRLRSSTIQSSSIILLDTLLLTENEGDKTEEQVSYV
Chain of UniProt P01024 (whole entry, unmodified, looked up): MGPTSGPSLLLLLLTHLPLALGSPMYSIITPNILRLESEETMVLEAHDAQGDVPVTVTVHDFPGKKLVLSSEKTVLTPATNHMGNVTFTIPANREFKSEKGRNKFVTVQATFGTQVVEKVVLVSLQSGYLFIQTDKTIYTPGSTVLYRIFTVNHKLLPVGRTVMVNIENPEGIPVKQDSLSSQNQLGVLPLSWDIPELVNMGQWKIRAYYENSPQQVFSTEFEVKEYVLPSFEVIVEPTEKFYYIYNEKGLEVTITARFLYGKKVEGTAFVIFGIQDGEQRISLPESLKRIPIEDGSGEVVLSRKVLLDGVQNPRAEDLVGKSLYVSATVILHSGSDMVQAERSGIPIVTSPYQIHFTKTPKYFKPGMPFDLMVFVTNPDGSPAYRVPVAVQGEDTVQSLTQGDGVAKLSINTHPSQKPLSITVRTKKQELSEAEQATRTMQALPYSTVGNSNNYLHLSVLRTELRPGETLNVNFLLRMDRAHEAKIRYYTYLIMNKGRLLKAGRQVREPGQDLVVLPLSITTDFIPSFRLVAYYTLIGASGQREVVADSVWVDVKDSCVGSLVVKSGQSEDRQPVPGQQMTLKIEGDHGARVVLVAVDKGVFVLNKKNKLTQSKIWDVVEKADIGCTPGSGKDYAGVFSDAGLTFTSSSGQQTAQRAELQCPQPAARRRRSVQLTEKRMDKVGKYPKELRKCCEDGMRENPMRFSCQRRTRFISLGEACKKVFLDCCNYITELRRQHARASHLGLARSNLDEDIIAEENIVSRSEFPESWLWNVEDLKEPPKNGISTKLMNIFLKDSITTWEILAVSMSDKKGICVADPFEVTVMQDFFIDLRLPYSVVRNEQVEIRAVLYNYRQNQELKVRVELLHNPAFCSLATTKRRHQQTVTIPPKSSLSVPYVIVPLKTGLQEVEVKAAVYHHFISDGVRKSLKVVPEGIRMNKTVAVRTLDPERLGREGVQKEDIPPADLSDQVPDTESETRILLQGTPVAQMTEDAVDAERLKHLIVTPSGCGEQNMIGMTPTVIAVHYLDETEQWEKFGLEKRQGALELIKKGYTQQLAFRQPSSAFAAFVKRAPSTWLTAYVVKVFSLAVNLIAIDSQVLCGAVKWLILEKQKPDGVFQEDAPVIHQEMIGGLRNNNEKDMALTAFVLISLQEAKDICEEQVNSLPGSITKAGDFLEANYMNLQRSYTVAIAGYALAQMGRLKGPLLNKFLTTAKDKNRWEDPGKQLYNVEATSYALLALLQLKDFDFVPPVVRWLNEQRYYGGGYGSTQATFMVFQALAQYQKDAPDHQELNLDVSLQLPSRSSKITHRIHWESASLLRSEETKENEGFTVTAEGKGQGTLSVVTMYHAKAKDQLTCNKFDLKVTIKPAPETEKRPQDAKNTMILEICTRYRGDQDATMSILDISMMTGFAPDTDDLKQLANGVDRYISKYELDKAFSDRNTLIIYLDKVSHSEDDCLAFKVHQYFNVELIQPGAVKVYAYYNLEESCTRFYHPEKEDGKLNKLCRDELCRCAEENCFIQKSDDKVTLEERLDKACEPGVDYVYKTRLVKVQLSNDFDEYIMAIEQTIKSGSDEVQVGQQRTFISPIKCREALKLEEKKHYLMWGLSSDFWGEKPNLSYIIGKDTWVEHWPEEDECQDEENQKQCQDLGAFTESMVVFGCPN
Chain of UniProt Q9NYL2 (whole entry, looked up): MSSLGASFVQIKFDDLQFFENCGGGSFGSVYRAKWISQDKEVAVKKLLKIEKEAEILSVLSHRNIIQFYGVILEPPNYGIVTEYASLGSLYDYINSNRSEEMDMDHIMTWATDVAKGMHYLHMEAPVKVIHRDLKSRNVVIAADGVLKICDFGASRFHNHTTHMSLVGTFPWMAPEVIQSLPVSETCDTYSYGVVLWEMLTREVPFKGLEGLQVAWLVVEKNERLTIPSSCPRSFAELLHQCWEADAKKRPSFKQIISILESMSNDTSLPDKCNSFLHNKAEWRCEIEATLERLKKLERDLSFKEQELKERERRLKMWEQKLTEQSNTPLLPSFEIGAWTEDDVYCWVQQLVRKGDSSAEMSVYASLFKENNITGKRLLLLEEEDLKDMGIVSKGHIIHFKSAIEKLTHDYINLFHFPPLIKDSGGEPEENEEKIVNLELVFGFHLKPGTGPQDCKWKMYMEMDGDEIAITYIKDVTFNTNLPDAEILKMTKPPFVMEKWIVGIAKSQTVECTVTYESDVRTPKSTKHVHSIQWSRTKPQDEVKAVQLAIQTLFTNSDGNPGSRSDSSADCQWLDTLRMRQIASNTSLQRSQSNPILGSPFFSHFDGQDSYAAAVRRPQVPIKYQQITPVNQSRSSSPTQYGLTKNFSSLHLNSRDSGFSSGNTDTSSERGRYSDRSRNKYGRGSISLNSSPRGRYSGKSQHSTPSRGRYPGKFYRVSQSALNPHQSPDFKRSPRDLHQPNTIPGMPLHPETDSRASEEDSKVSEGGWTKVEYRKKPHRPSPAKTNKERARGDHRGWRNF
Chain of UniProt Q02750 (whole entry, looked up): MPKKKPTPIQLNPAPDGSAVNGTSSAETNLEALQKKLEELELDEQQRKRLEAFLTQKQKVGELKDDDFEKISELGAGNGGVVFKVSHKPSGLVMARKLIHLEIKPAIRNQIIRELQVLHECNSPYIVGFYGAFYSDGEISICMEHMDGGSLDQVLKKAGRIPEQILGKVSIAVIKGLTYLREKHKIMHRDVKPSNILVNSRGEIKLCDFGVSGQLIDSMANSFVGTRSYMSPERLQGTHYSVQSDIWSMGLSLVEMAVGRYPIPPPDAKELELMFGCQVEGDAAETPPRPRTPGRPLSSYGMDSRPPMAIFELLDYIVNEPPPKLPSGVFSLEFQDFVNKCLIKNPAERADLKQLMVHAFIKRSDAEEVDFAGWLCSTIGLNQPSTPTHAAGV
Chain of UniProt Q9Y294 (whole entry, looked up): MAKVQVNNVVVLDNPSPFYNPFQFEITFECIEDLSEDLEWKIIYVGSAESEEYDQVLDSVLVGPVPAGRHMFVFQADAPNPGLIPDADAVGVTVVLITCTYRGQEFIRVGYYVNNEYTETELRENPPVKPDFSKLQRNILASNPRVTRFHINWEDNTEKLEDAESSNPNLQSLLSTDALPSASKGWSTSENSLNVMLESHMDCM
Chain of UniProt Q9BY41 (whole entry, unmodified, looked up): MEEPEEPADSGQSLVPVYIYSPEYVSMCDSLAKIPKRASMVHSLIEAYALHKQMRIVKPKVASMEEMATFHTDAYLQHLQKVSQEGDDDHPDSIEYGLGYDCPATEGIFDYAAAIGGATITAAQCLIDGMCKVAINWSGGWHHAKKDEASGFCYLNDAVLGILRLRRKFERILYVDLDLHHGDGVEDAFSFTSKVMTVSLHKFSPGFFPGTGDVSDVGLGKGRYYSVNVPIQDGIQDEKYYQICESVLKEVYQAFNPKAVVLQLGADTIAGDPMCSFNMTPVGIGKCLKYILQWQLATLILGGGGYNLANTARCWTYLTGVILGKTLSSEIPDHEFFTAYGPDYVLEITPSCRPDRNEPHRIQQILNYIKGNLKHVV
Chain of UniProt P07687 (whole entry, looked up): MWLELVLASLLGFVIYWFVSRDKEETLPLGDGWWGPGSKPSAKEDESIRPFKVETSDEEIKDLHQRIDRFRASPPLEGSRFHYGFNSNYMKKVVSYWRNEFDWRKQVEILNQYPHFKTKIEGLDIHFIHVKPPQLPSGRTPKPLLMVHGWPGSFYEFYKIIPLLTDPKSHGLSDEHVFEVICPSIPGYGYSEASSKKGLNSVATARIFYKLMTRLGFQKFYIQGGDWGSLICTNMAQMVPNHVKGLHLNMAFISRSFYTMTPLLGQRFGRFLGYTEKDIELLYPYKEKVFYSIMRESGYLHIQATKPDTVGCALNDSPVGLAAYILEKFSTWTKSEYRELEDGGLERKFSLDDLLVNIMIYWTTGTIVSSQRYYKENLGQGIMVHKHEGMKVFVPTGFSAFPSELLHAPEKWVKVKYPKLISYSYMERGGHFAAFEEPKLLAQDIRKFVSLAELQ
Chain of UniProt P21397 (whole entry, looked up): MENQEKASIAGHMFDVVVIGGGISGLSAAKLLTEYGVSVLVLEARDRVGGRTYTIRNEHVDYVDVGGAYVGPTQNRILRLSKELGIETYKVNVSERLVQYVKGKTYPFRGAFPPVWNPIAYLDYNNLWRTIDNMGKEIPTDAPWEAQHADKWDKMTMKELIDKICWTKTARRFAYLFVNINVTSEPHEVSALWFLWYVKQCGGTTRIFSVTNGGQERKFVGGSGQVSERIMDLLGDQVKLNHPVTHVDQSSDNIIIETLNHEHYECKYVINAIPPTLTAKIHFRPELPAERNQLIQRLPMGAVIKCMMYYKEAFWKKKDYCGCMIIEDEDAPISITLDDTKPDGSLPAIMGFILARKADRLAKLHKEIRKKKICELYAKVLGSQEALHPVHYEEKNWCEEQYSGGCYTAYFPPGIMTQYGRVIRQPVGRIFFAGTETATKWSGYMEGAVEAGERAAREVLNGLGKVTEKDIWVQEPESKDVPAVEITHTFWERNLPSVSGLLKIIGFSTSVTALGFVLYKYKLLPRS

SMILES	target	test	test system	conditions	scale	quantity	value
CC(/C=C/C(=O)NO)=C\[C@@H](C)C(=O)c1ccc(N(C)C)cc1	Histone deacetylase 8 (HDAC8, Homo sapiens, UniProt Q9BY41)	temperature-dependent ITC				temperature where ΔG equals ΔH	295 K
CC[C@H](C)[C@H](NC(=O)[C@H](CCCNC(=N)N)NC(=O)[C@H](CCCCN)NC(=O)[C@@H](NC(=O)[C@H](C)NC(=O)[C@H](CCCNC(=N)N)NC(=O)[C@H](CCC(N)=O)NC(=O)[C@H](CO)NC(=O)[C@H](CCCCN)NC(=O)[C@H](CC(N)=O)NC(=O)[C@@H](N)CCCNC(=N)N)[C@@H](C)O)C(=O)N[C@@H](CO)C(=O)N[C@@H](Cc1c[nH]cn1)C(=O)N[C@@H](CCSC)C(=O)N1CCC[C@H]1C(=O)N[C@@H](CO)C(=O)N[C@@H](CCCNC(=N)N)C(=O)N1CCC[C@H]1C(=O)N[C@@H](CCC(=O)O)C(=O)N[C@@H](CC(C)C)C(=O)N[C@@H](CO)C(=O)N[C@@H](C)C(=O)N[C@H](C(=O)N[C@@H](C)C(=O)N[C@H](C(=O)N[C@@H](CC(=O)O)C(=O)N[C@@H](CC(C)C)C(=O)N[C@@H](CCCNC(=N)N)C(=O)N[C@@H](CCCCN)C(=O)N[C@@H](CC(=O)O)C(=O)N[C@@H](CCCCN)C(=O)N[C@@H](C)C(=O)N[C@@H](CCCCN)C(=O)N[C@@H](COP(=O)(O)O)C(=O)N[C@@H](CS)C(=O)OC)[C@@H](C)O)C(C)C	14-3-3 protein zeta/delta (YWHAZ, Homo sapiens, UniProt P63104)	binding, stopped-flow fluorescence polarization				kon	2.96e+07 M⁻¹ s⁻¹
COc1cncc(C(=O)N2CC3CCC(N)C3C2)n1 (centres unmarked)	5-hydroxytryptamine receptor 2B (HTR2B, Homo sapiens, UniProt P41595)	β-arrestin recruitment, agonist				Emax	112%
CNS(=O)(=O)Nc1cccc(-n2c(=O)n(C3CC3)c(=O)c3c(Nc4ccc(I)cc4F)n(C)c(=O)c(C)c32)c1	Dual specificity mitogen-activated protein kinase kinase 1 (MAP2K1, Homo sapiens, UniProt Q02750)	substrate phosphorylation, inhibitor		1 µM		outcome	inhibited
CC(C)(C)NC(=O)[C@@H]1C[C@@H]2CCCC[C@@H]2CN1C[C@@H](OC(=O)CCC(=O)OC[C@H](O)[C@H]1OC(=O)C(O)=C1O)[C@H](Cc1ccccc1)NC(=O)[C@H](CC(N)=O)NC(=O)c1ccc2ccccc2n1	Sodium-dependent vitamin C transporter (Canis lupus familiaris, UniProt A8CX01)	substrate	MDCK-MDR1	25 µM, 60 min, added: ascorbic acid 5 mM	reference: without ascorbic acid	uptake reduction	27%
CC[C@H](C)[C@H](NC(=O)[C@@H]1CSSC[C@H](NC(=O)[C@@H](NC(C)=O)[C@@H](C)CC)C(=O)N[C@@H](C(C)C)C(=O)N[C@@H](Cc2cn(C)c3ccccc23)C(=O)N[C@@H](CCC(N)=O)C(=O)N[C@@H](CC(=O)O)C(=O)N[C@@H](Cc2c[nH]c3ccccc23)C(=O)NCC(=O)N[C@@H](C)C(=O)N[C@@H](Cc2c[nH]cn2)C(=O)N[C@@H](CCCNC(=N)N)C(=O)N1)C(N)=O	Complement C3 (Homo sapiens, UniProt P01024)	ITC	PBS	concentration not given, pH 7.4, 25 °C		−TΔS of binding	5.7 kcal/mol
Cc1ccc2c(c1)/C(=N/N=C/c1cccc(OCc3ccccc3)c1)C(=O)N2	Amine oxidase [flavin-containing] A (MAOA, Homo sapiens, UniProt P21397)	enzyme activity, inhibitor		10 µM		remaining activity	65.2%
OC[C@H]1O[C@@H](Oc2ccc(OCc3cn([C@H]4[C@H](O)[C@@H](O)[C@H](c5cn([C@H]6[C@H](O)[C@@H](O)[C@H](n7cc(COc8ccc(O[C@@H]9O[C@H](CO)[C@H](O)[C@H](O)[C@H]9O)cc8)nn7)O[C@@H]6CO)nn5)O[C@@H]4CO)nn3)cc2)[C@H](O)[C@@H](O)[C@H]1O	PA-I galactophilic lectin (lecA, Pseudomonas aeruginosa, UniProt Q05097)	isothermal titration calorimetry		25 °C		ΔG	-9.6 ± 0.1 kcal/mol
O=C(NCC1CO1)Oc1ccc([N+](=O)[O-])cc1 (racemic)	Epoxide hydrolase 1 (Ephx1, Rattus norvegicus, UniProt P07687)	enzyme activity, substrate		50 µM, pH 9.0, 37 °C, rat enzyme		specific activity	< 5 nmol/min/mg
CCCC[C@@H](CNC(=O)N[C@@H](CCC(N)=O)CNC(=O)N[C@@H](CCCNC(=N)N)C(=O)N[C@H](C(=O)N[C@@H](C)C(N)=O)[C@@H](C)CC)NC(=O)NC[C@H](CCCNC(=N)N)NC(=O)NC[C@H](Cc1ccc2ccccc2c1)NC(=O)[C@H](CCCCN)NC(=O)[C@H](CCC(=O)O)NC(C)=O	Histone chaperone ASF1A (Homo sapiens, UniProt Q9Y294)	isothermal titration calorimetry		concentration not given, pH 7.5, 20 °C		binding enthalpy	-2.2 ± 0.3 kcal/mol
COc1cc(C(=O)NC2CCC(N3CCN(CC4CCC5(CCCC5)C4)CC3)CC2)c(F)cc1Nc1ncc2c(n1)N(C1CCCC1(F)F)CC(F)(F)C(=O)N2C (centres unmarked)	Mitogen-activated protein kinase kinase kinase 20 (MAP3K20, Homo sapiens, UniProt Q9NYL2)	cell-free assay, TR-FRET		10 µM		inhibition	0.33%

Excerpt of the above:
SMILES	target	test	test system	conditions	scale	quantity	value
CC(/C=C/C(=O)NO)=C\[C@@H](C)C(=O)c1ccc(N(C)C)cc1	Histone deacetylase 8 (HDAC8, Homo sapiens, UniProt Q9BY41)	temperature-dependent ITC				temperature where ΔG equals ΔH	295 K
